# Experimental data collected from several papers.
# Parts stem from different laboratories: compare values within a part only.

# Block 1 — technique: protein binding microarray; form: double-stranded DNA, one strand shown; medium: in vitro; tested at: not given; relative to: not given; direction: higher = stronger binding
# Target: Histone acetyltransferase KAT6A, both winged helices, GST fusion (KAT6A, Homo sapiens, UniProt Q92794, residues 1-181)
# Notes: 8-mer, flanks averaged, mean of 2 arrays, mostly near background
# Residues (chain): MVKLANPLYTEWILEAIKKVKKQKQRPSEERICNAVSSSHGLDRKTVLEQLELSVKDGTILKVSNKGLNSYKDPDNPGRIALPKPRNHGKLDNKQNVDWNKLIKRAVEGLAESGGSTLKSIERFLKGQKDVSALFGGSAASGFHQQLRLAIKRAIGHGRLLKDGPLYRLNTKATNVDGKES
Strand,E-score
TAGCCTAA,-0.118
CCCGAGCG,0.269
CAACCGTG,0.0487
GGGGCGAA,-0.0359
GCCTGCAA,-0.128
ATTGGTTG,-0.177
GAAGGCTA,-0.0989
AACACTCG,0.0743
ACAAAAGA,-0.0296
AGTAACGC,0.00345
ATCACCCC,-0.111
CCAGAAAA,-0.307
CCTGGGTA,-0.218
ATTGCCAG,-0.253
AGGGAACC,0.00281
TAGTTTCA,-0.143
AACGGGCG,0.241
AGGTTAGA,-0.207

# Block 2 — technique: protein-binding microarray; form: double-stranded DNA, one strand shown; medium: in vitro; tested at: 940 nM top; notes: 60-bp whole probe; together with: salmon DNA 0.4 mg/ml; relative to: random background probes; direction: higher = stronger binding; constant ends, left off below: GCCTAGCAC … GTCTTGATTCGCTTGACGCTGCTG
# Target: Interferon regulatory factor 5, full length, phosphomimetic (IRF5, Homo sapiens, UniProt Q13568-2, residues 1-514, S451D/S453D/S456D/S462D)
Strand,fitted relative affinity [z-score]
TGAGCATACCATATCAGAAAGTGCTAG,-0.0464
TCACTTTCCTTTATGTCACTGTGCTAG,2.03
TTCCAACTCTGTTTTCGCTTGTGCTAG,1.27
GGACAGTAATGGAGGTATAAGTGCTAG,-0.425
TACGGTTTCCTTTCCCTGACGTGCTAG,1.82
GACGATGTCAGTCTCGAGACGTGCTAG,0.596
TACGGTATCCTTTTCCTGACGTGCTAG,0.832
TCATCTTTCACTACTCCACTGTGCTAG,2.39
TTAGGTATCCTACTGCGTTAGTGCTAG,-0.157
GCCGGACTGCTTCTCCTGACGTGCTAG,-0.174
TTAGATTTCAGTTCCGATGAGTGCTAG,1.61
TCAAATGTCCTTTCTCCAACTGTGCTA,0.738
GACGGGCTCGGTCTCGGGACGTGCTAG,0.115
GACGGACTGGGACTGGGGTCGTGCTAG,-0.57
GACGATTTCGGCACTGGAGACGTGCTA,-0.046
GACGGACTGGGGACTGGGGATGTGCTA,-0.195
GACGCTATCGGGTATCGGGACGTGCTA,0.754
TTACATATCGGGTTTCGATTAGTGCTA,5.23
TCGTATGTGACCTTTTTAAGAGTGCTA,0.617
GGTTTTTACTTTCTGAATGCGTGCTAG,2.17
GACGGTTTCGGGTATCGGGAAGTGCTA,9.52
GACGGTATCGGATTCGGGACGTGCTAG,3.54
TCACCTGTACATCTATGACTGTGCTAG,0.477
GACGAACTGAGTCTCCAGACGTGCTAG,-0.389
GACGGTCTACTTTTCCTGACGTGCTAG,0.535

# Block 3 — technique: RNA Bind-n-Seq; form: RNA; medium: in vitro; tested at: not given; relative to: input RNA pool; direction: higher = stronger binding
# Target: RING finger protein unkempt homolog, zinc fingers 1-6, GST-SBP tag (UNK, Homo sapiens, UniProt Q9C0B0, residues 30-357)
# Notes: RNA with constant flanks, human-mouse chimeric sites, ends assumed
# Constant ends, left off below: GGGAGUUCUACAGUCCGACGAUC … CAACAGAGGAUUGAGCAUCA
# Residues (chain): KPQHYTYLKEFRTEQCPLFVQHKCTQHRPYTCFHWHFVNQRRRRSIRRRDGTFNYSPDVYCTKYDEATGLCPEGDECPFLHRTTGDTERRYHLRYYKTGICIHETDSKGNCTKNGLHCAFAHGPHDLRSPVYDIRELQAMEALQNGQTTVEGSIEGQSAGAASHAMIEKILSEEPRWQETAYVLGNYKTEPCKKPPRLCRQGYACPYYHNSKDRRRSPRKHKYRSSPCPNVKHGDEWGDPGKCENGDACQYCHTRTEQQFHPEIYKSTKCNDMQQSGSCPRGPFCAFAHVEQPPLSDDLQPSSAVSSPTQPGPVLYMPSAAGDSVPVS
Strand,bound/input enrichment
AGGAGGAGGUUAAAGGGUGAAAAUGGGGUGGAAGACUGUGUCAUGGCUCUGGAGACACUGUUCAGUGUUCUGCUUUCUCUGUGCAGACUGAUGGCCCCUUACACGCCCUUUCUGACUGAG,0.0648 ratio
GUGUCCUUUCAACUUAAUAAAUCACUGCAUUUUUACUACUGUUCUGUGAGCAUCAGGACUGUAGCGCUGUGUCACCACAUGAGAGUUCAGAAGCAGCCUUUCUGUGGAGGGUGGGAAUGA,0.2 ratio
AAAGAACCUCUCUCUGAUGAAGAUGAGGACAGUGAUGAUGAUGUUGAACCCAUUUCUGAAUUUCGAUUUGUGCCCAGUGAUAAGUCAGCAUUGGAGGCAAUGUUCACAGCAAUGUGUGAG,0.182 ratio
GACUUGGGACCGUCCUGGGCUAGUACAAUAGCGGCAGGUGGAGGCUCGAGAGGAAAGUUUGUUAGUGGAGGCAGUGGUAGAGGCCGUCAUGUACGGUCCUUUACUCGAUAGAUGUGUUCU,0.243 ratio
AGAGAUAAAGCAUCUAGGAACAUGCGAGGCUCCCGGAUGAAUGGGUUUCCAAGUCCCACUCACAGCGCCCACUGUAGCUUCUACCGAACCAGAACCUUGCAGGCACUGAGUAAUGAGAAG,0.0755 ratio
ACCAUUUUCGCGGUUCAGGCUUUGUGUGUAGUUCACUCUAUGUAUUAAAUUAUUAUUCUGCUUAGCUUAUAAUAAGGAUUACAAUUGUUAAAGAGGUUACUGAAUGUUACUCUGAAACUU,0.548 ratio
CUUAAUGAUAUUUUGAGUGAAUAAAUGAAGCUAAAAUUUUGCUUUCUGGUACAACACGCAUUAAUAAAAGGUUAAGUUUUGUUUUCCACUGAAGUACUAUUUAACAUCUCAGAAAAAAAC,0.142 ratio
UUCAAAGAAAAGGGCAGCUGUGUCAUUUCAUAAGUAACUCUGGGGGAUAAGUGGAAGGUUCUUUUGUUUAAUUUUCCCCCAAAUGAAGCCAAAGUGUGUGUUGAAGAACUGAGAAAAAAU,0.195 ratio
ACUCUUGACUCUUUCCAUCCUCUUCCUUUCCCUCUUGAUAUUCAAGGCCAUGAAUCCCAAAAUAACAAUCUAUCUUACUAGCACCCACCCAAACUGAGAAUAAAUCCACCCCAGUGUCUC,1.45 ratio
AACAGAUUGUCUUUAAGCAUUCCAAGCGAGAAUGCUGGGGUGAUCAUUGUUGCCCAUGUGCCUUCUGACUGAGCUUUUAAUUAAUUGCAUGUUACAUCUUUCCUUCACUCCAGAAUUGUU,0.261 ratio
CUUAAUGUUAAUAUUUUUGAAUAAAUGAAGCUAAAAUGUCUGCUUUUGGUACAACACGCAUUAAUAAAAGGUUAAGUAAGUUUUGUUACUGAAGUACUAUUUAACAUACAUCUCAGAAAC,0.28 ratio

# Block 4 — technique: RNA Bind-n-Seq; form: RNA; medium: in vitro; tested at: 365 nM; relative to: no-protein control; direction: higher = stronger binding
# Target: RNA binding protein fox-1 homolog 2, RRM domain, GST-SBP tag (RBFOX2, Homo sapiens, UniProt O43251-10, residues 100-194)
# Notes: natural RNA segment, single round, ends assumed
# Constant ends, left off below: GGGAGUUCUACAGUCCGACGAUC … UGGAAUUCUCGGGUGCCAA
# Construct (chain): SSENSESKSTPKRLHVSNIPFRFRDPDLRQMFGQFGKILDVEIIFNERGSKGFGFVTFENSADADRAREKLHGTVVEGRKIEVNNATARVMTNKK
Strand,RBNS enrichment (R)
CUUCCACCUCUAUCUCUCUUUCUCUCCUGCUGCACAAUCCUCCCACGACCCUUCCCACCCCAUUCACUGGGCUGGCUCCGACCUUUCCCAGGGCUAGCCUUCACUGCCCU,0.626
CAACCAAAAGACUAGAUUGUGCCUAAGCACUCCUUCUGGAACAACCGAAUGAUCAGCUGCAUAGCAAAGGACUGUGCCGCUGGCAUAUUGAUCUCAGAUAAAAACUUGUG,0.339
AGAAAAAAAUUAAGAAAUUGCUCAAGGGAAACAUUUGUAAAUGGAUUUGAAAGAUUGAGCCAAAUUCUGUUGUCAGUUCUAAGCAUGCAGUUCUCACCUCCAUUUAGUCC,19
AGGGUGGUGAGACCCUUCCUGGCUCCCCUGCUUUGUGAGUUAGGCGUGCUGGGGCACCCUCCUGGCCAGGUGGUACUUUGGGGACUUGGGUGUUUGCAUCAUAAUGUCAU,0.563
UAGCAAUAGCAGCCCCAUCUACCCUUUGAGUCCUCAACUAAACACCAGUGGGAAGAGAACCGUUCCAUCCUCUGGUGUUAACGCCUUAAUGUCCCCAGUAUUUACUAUGA,0.481
UGUUCCUGGGGAAGCUGGGGACUUGGGAAGUGAUGGGUGUGUCAUGUUGCGUGUGUCUGUCUGUGAGCCUUUCACACCUGUGCUGGCGCUGGAAAAUUAUUUGUGCUCAG,1.79
GAGAUAGAAGUUAUGACAUAUGUAAUACACAUCUGUGUACACAGAAACCGGCACCUGCCAGACAGAGCUGGUUCUAAGAUUUAAUACAGUGCUUUUUUUCCUCUUUGAAA,0.41
GCCAGUCACUUCUUCCUGGGUCUGUCUGCUGCUCUCGGUCCUCUAAGCUCCCCUUGGAGUUGGAGAGGUAUCGGGGACACUGCUGGUUAGUACGUUUUGAUUUUAAACAG,0.304
AAUUGUGUUCCCUUGCCCUGAGCAGUCCUUAGACUCAGGGCUUGAAGGUCUGUGGUGUCUCUGUCCGAUGGAGCAGUCUUAAAGCUUUAGUCAGCACAGGCCUAGCAAGG,0.252
GCCUCGUCCCCUCCCCUGGUGCCUGUGUCUGCAGAAAAACAAGACCAGAUGUGAUUUGUUUUUAAAAUAAGAUGAUGACAACGACAACCACACGCAAACCAACAAACAAA,0.527
UGGGGGCAGGAGGUAAAGAAACAUCUUAGAGAAAUCCACUUUACUAUCAAGUUCACAACCAGUUUUAUAUUCGAAACGCUUGGAGUCAGCCAGCCAGCCACAUGCAGCUU,0.514
UUUAUUACAUUGAAGAAACUAAAACAUAAAUGAAAAGAAACACUAGGUUCCUGCACUUUUUGGUAACUUUAUGUCUAGCAAAUAUUUUAUGCCAAGAAAAGCAUACUAUA,0.521

# For quick reference, copied from above (block 3):
Strand,bound/input enrichment
AGGAGGAGGUUAAAGGGUGAAAAUGGGGUGGAAGACUGUGUCAUGGCUCUGGAGACACUGUUCAGUGUUCUGCUUUCUCUGUGCAGACUGAUGGCCCCUUACACGCCCUUUCUGACUGAG,0.0648 ratio
GUGUCCUUUCAACUUAAUAAAUCACUGCAUUUUUACUACUGUUCUGUGAGCAUCAGGACUGUAGCGCUGUGUCACCACAUGAGAGUUCAGAAGCAGCCUUUCUGUGGAGGGUGGGAAUGA,0.2 ratio
AAAGAACCUCUCUCUGAUGAAGAUGAGGACAGUGAUGAUGAUGUUGAACCCAUUUCUGAAUUUCGAUUUGUGCCCAGUGAUAAGUCAGCAUUGGAGGCAAUGUUCACAGCAAUGUGUGAG,0.182 ratio
GACUUGGGACCGUCCUGGGCUAGUACAAUAGCGGCAGGUGGAGGCUCGAGAGGAAAGUUUGUUAGUGGAGGCAGUGGUAGAGGCCGUCAUGUACGGUCCUUUACUCGAUAGAUGUGUUCU,0.243 ratio
AGAGAUAAAGCAUCUAGGAACAUGCGAGGCUCCCGGAUGAAUGGGUUUCCAAGUCCCACUCACAGCGCCCACUGUAGCUUCUACCGAACCAGAACCUUGCAGGCACUGAGUAAUGAGAAG,0.0755 ratio
ACCAUUUUCGCGGUUCAGGCUUUGUGUGUAGUUCACUCUAUGUAUUAAAUUAUUAUUCUGCUUAGCUUAUAAUAAGGAUUACAAUUGUUAAAGAGGUUACUGAAUGUUACUCUGAAACUU,0.548 ratio
CUUAAUGAUAUUUUGAGUGAAUAAAUGAAGCUAAAAUUUUGCUUUCUGGUACAACACGCAUUAAUAAAAGGUUAAGUUUUGUUUUCCACUGAAGUACUAUUUAACAUCUCAGAAAAAAAC,0.142 ratio
